Published values of several laboratories.
Lines come from different studies, so protocols differ. ± marks the error that the study gave.

SMILES	cell line	test	system	setting	IC50
COc1c(O)c(Br)c2oc3c(Br)c(O)c(CC=C(C)C)c(O)c3c(=O)c2c1CC=C(C)C	SMMC-7721	cell growth or viability	–	48 h	8.07 µM
Cc1ccc2nc(Cl)c(-c3nc4cc(Cl)ccc4[nH]3)cc2c1	BEL-7404	cell growth or viability, MTT	–	48 h	> 100 µM
CC[C@H](C)[C@H](NC(=O)[C@H](Cc1ccc(OP(=O)(O)O)cc1)NC(=O)[C@H](CC(=O)O)NC(=O)[C@H](CCCCN)NC(=O)CNC(=O)[C@H](CC(=O)O)NC(=O)[C@H](CCC(N)=O)NC(=O)[C@@H](N)CCC(N)=O)C(=O)N[C@H](C(=O)N[C@@H](CC(C)C)C(=O)N1CCC[C@H]1C(=O)N[C@H](C(=O)N[C@@H](CO)C(=O)N[C@@H](CCC(=O)O)C(=O)N[C@H](C(=O)N[C@@H](CCCCNC(=O)CNC(=O)[C@H](CCCCN)NC(=O)[C@H](CCCNC(=N)N)NC(=O)[C@H](Cc1ccccc1)NC(=O)[C@H](CCCNC(=N)N)NC(=O)[C@H](CCCNC(=N)N)NC(=O)[C@H](CCCNC(=N)N)NC(=O)[C@H](CO)NC(=O)[C@H](Cc1ccc(O)cc1)NC(=O)[C@H](CO)NC(=O)[C@H](CC(C)C)NC(=O)[C@H](CCCNC(=N)N)NC(=O)[C@@H](N)CCCNC(=N)N)C(N)=O)[C@@H](C)O)[C@@H](C)CC)C(C)C	HPAEC	ERK1/2 phosphorylation, inhibitor, Western blot	–	0.5 h pre-incubation, serum-free medium, together with: 1 ng/mL VEGF	24.7 µM
COC1CCC(Nc2nc(-c3nccn3C)nc3sc(-c4ccn(C)n4)c(-c4ccccc4)c23)C1 (stereo not drawn)	MIA PaCa-2 (KRAS G12C)	Western blot, item: phospho-Akt	–	6 h, together with: EGF 15 min	~7 µM
COc1ccc2nc(Cl)c(-c3nc4ccccc4[nH]3)cc2c1	BEL-7404	cell growth or viability, MTT	–	48 h	> 100 µM
N#Cc1cccc(-c2ccc(=O)n(Cc3cccc(-c4ncc(OCC5CCN(CCCCC(=O)Nc6cccc7c6C(=O)N(C6CCC(=O)NC6=O)C7=O)CC5)cn4)c3)n2)c1 (stereo not drawn)	EBC-1	cell growth or viability, CCK-8	–	72 h	0.00945 µM
NC1CCCCC1N.O=C(CCCc1ccccc1)[O][Pt]1([O]C(=O)CCCc2ccccc2)[O]C(=O)C(=O)[O]1	BXPC-3	cell growth or viability	–	–	7.64 µM
CCCCCCCCCCCCCCn1c(-c2cccnc2)nc(-c2ccc(C)cc2)c1-c1ccc(C)cc1	BT-474	cell growth or viability, SRB	–	48 h	> 100 µM
Cc1cc(C)c([N+]#[C][Pt-]([Cl])([Cl])=[C](Nc2ccc(CN[C](NC(C)(C)C)=[Au][Cl])cc2)Nc2c(C)cc(C)cc2C)c(C)c1	MRC5	cell growth or viability	–	–	> 100 µM
CC(C)c1ccc(/C=C/C(=O)N[C@@H]2O[C@H](CO)[C@@H](O)[C@H](O)[C@H]2O)cc1	human T-lymphocyte	cell growth or viability	–	72 h	> 250 µM
CC(=O)O[C@@H]1[C@H](OC(C)=O)[C@@H](C)O[C@H]1n1cc(F)c(NC(=O)/C=C/c2ccc(O)c(O)c2)nc1=O	BXPC-3	cell growth or viability, MTT	–	72 h	23.1 µM
[Cl][Cu-][c]1n(-c2c(C(c3ccccc3)c3ccccc3)cc(C(c3ccccc3)c3ccccc3)cc2C(c2ccccc2)c2ccccc2)c2c([n+]1-c1c(C(c3ccccc3)c3ccccc3)cc(C(c3ccccc3)c3ccccc3)cc1C(c1ccccc1)c1ccccc1)-c1cccc3cccc-2c13	NTERA2	cell growth or viability, MTT	–	72 h	> 50 µM
COc1cc(N2CCN(C(=O)C3CCCN3)CC2)ccc1Nc1ncc(Cl)c(Nc2ccccc2P(C)(C)=O)n1 (stereo not drawn)	NCI-H3122	cell growth or viability, CCK-8	–	48 h	0.034 µM
Clc1nc2ccccc2cc1-c1nc2ccccc2[nH]1	L02	cell growth or viability, MTT	–	48 h	> 100 µM
CCCCCC(C)n1c(-c2cccnc2)nc(-c2ccc(C)cc2)c1-c1ccc(C)cc1 (stereo not drawn)	BT-474	cell growth or viability, SRB	–	48 h	39.6 µM
CC(=O)N[C@H](CC(=O)O)C(=O)N[C@H](Cc1ccccc1)C(=O)N[C@@H](CC(=O)N[C@H](CCCNC(=N)N)C(N)=O)c1ccc2ccccc2c1	BT-474	cell growth or viability, ATP luminescence	–	72 h	> 100 µM
CO[C@@H]1[C@@H](O[C@@H]2O[C@H](C)[C@@H](O[C@H]3C[C@@](C)(O)[C@@H](O)[C@H](C)O3)[C@H](N(C)C)[C@H]2O)[C@@H](CC=O)C[C@@H](C)[C@@H](O[C@H]2CC[C@H](N(C)C)[C@@H](C)O2)/C=C/C=C/C[C@@H](C)OC(=O)C[C@H]1OC(=O)c1ccc(C(C)(C)C)cc1	GES1	cell growth or viability, CCK-8	–	72 h	31.2 µM
CN1CCN(Cc2ccc(-c3ccc4[nH]c5ncc(/C=C/c6ccccc6)cc5c4c3)cc2)CC1	Ba/F3 NPM-ALK	cell proliferation, [3H]-thymidine incorporation	–	–	2.5 µM
CO[C@@H]1[C@@H](O[C@@H]2O[C@H](C)[C@@H](O[C@H]3C[C@@](C)(O)[C@@H](OC(=O)c4ccc(C(C)(C)C)cc4)[C@H](C)O3)[C@H](N(C)C)[C@H]2O)[C@@H](CC=O)C[C@@H](C)[C@@H](O[C@H]2CC[C@H](N(C)C)[C@@H](C)O2)/C=C/C=C/C[C@@H](C)OC(=O)C[C@H]1O	GES1	cell growth or viability, CCK-8	–	72 h	3.34 µM
Cc1ccc(C(=O)C2Sc3nnc(-n4nc(C)cc4C)n3NC2c2ccc(Cl)cc2)cc1 (racemic)	LN-229	cell growth or viability, imaging	–	72 h	> 100 µM
N=C(N)NCCC[C@@H](N)C(=O)N[C@@H](CC(=O)N[C@H](Cc1ccccc1)C(N)=O)c1ccc2ccccc2c1	BT-474	cell growth or viability, ATP luminescence	–	72 h	1.17 µM
Cc1cc2nc(-c3cc4cc5c(cc4nc3Cl)OCO5)[nH]c2cc1C	BEL-7404	cell growth or viability, MTT	–	48 h	> 100 µM
COc1c(O)c(Br)c2oc3c(Br)c(O)c(CCC(C)C)c(O)c3c(=O)c2c1CCC(C)C	SMMC-7721	cell growth or viability	–	48 h	3.98 µM
Cc1cc2nc(-c3cc4ccccc4nc3Cl)[nH]c2cc1C	BEL-7404	cell growth or viability, MTT	–	48 h	15.4 µM
N#Cc1cccc(-c2ccc(=O)n(Cc3cccc(-c4ncc(OCC5CCN(CCCCCCCC(=O)Nc6cccc7c6C(=O)N(C6CCC(=O)NC6=O)C7=O)CC5)cn4)c3)n2)c1 (stereo not drawn)	EBC-1	cell growth or viability, CCK-8	–	72 h	0.0195 µM
Cc1cc(C)c(N[C](NCc2ccc(N[C](Nc3c(C(C)C)cccc3C(C)C)=[Pd-]([Cl])([Cl])[C]#[N+]c3c(C(C)C)cccc3C(C)C)cc2)=[Au][Cl])c(C)c1	MRC5	cell growth or viability	–	–	> 100 µM

SMILES	cell line	test	system	setting	IC50
CCOC(=O)C[C@H]1Oc2ccccc2C(=O)[C@]1(C)[N+](=O)[O-]	human Fibroblast	cell growth or viability, SRB	–	96 h	> 100 µM
CC(=O)OC[C@H]1O[C@@H](NC(=O)COc2ccc(-c3ccccc3)cc2)[C@H](OC(C)=O)[C@@H](OC(C)=O)[C@@H]1OC(C)=O	human T-lymphocyte	cell growth or viability	–	72 h	180 µM
O=C(CCCCC1SCC2NC(=O)NC21)NCCCCC1CN(C(CC2CCCCC2)CN2CCCC2CN2C(=O)C(=O)NCC2Cc2ccccc2)C(=O)C(=O)N1CCc1ccccc1 (stereo not drawn)	WM 266-4	cell growth or viability, ATP luminescence	–	72 h	3.3 µM
CO[C@@H]1[C@@H](O[C@@H]2O[C@H](C)[C@@H](O[C@H]3C[C@@](C)(O)[C@@H](OC(=O)Cc4ccc(C(C)(C)C)cc4)[C@H](C)O3)[C@H](N(C)C)[C@H]2O)[C@@H](CC=O)C[C@@H](C)[C@@H](O[C@H]2CC[C@H](N(C)C)[C@@H](C)O2)/C=C/C=C/C[C@@H](C)OC(=O)C[C@H]1O	GES1	cell growth or viability, CCK-8	–	72 h	2.29 µM
COc1ccc2cc3[n+](cc2c1OCc1cn(Cc2ccccc2)nn1)CCc1cc2c(cc1-3)OCO2	SMMC-7721	cell growth or viability, MTT	–	–	35.4 µM
CCN(CC)CCO/N=C1/C=C2CCC3C(CC[C@]4(C)/C(=C/c5ccccn5)CCC34)[C@@]2(C)CC1 (stereo partly drawn)	human Fibroblast	cell growth or viability, resazurin	–	72 h	14.7 µM
CN1CCCNC(=O)CCC(=O)NCCCN(C)CCCNc2cccc3c2C(=O)c2cccc(c2C3=O)NCCC1	mouse bone marrow cells	cell proliferation, CCK-8	–	48 h	> 20 µM
CC1=C2[O][Ru-]([Cl])[O+]=C2C=CN1CCCCCCCCCCCCN1C=CC2=[O+][Ru-]([Cl])[O]C2=C1C.Cc1ccc(C(C)C)cc1.Cc1ccc(C(C)C)cc1	KYSE-70	cell growth or viability, crystal violet	–	96 h	22.5 µM
CCCCCCCCCCn1c(-c2cccnc2)nc(-c2ccc(C)cc2)c1-c1ccc(C)cc1	BT-474	cell growth or viability, SRB	–	48 h	93 µM
Cc1ccc(Nc2ccn3ncc(-c4ccc5c(c4)CN([C@H]4CCC(=O)NC4=O)C5=O)c3n2)cc1Cl	MOLM-13 CRBN knock-out	cell viability, CellTiter-Glo	–	72 h	> 10 µM
COc1ccc2cc3[n+](cc2c1OCc1cn(Cc2ccccc2Cl)nn1)CCc1cc2c(cc1-3)OCO2	SMMC-7721	cell growth or viability, MTT	–	–	40 µM
CCOc1ccccc1-c1ccc2[nH]c3ncc(/C=C/c4ccccc4)cc3c2c1	Ba/F3 NPM-ALK	cell proliferation, [3H]-thymidine incorporation	–	–	4 µM
O=c1ccn([C@@H]2O[C@H](CSSc3ccccn3)[C@@H](O)[C@H](F)[C@H]2O)c(=O)[nH]1	human Fibroblast	cell growth or viability	–	–	9.2 µM
COC(=O)C1=CO[C@@H](C)[C@@H]2Cn3ccc4c5ccccc5nc-4c3C[C@H]12	NFF	cell growth or viability	–	–	> 200 µM
Cc1nc([N+](=O)[O-])c(N2CCNCC2)n1Cc1ccccc1	normal human dental fibroblasts	cell viability, MTT	–	72 h	> 500 µM
COc1cccc(-c2ccc(Nc3ccc(CN(C)C)cc3)c(OC)c2F)c1	NCI-H441	cell growth or viability, ATP luminescence	–	72 h	11.1 µM
CC/C(=C(\c1ccc(O)cc1)c1ccc(OCCN(C)CCOCCOCCOCCOCCOC)cc1)c1ccccc1	MCF7 (ER-positive)	cell growth	–	96 h	0.37 µM
CC(=O)OC[C@H]1O[C@@H](NC(=O)NC(=O)[C@@H](C)Cc2ccc(C(C)C)cc2)[C@H](OC(C)=O)[C@@H](OC(C)=O)[C@@H]1OC(C)=O	human T-lymphocyte	cell growth or viability	–	72 h	32 µM
CC(=O)c1cnc(N)nc1N1CC[C@H]1c1nn2ccc(Cl)c2c(=O)n1-c1ccccc1	purified human B cells	item: CD69 and IL-6	–	together with: anti-IgM	< 0.01 µM
CC(C)c1cccc(C(C)C)c1[N+]#[C][Pt-]([Cl])([Cl])=[C](Nc1cccc(CN[C](Nc2c(C(C)C)cccc2C(C)C)=[Au][Cl])c1)Nc1c(C(C)C)cccc1C(C)C	MRC5	cell growth or viability	–	–	> 100 µM
Cc1ccc2nc(Cl)c(-c3nc4cc(Cl)c(Cl)cc4[nH]3)cc2c1	BEL-7404	cell growth or viability, MTT	–	48 h	> 100 µM
Cc1cc(O)cc2c1O[C@](C)(CCC[C@H](C)CCC[C@H](C)CCCC(C)C)CC2	C3PV	cell growth or viability, MTT	–	24 h	15.8 µM
CCN(CC)c1ccc2c(c1)Oc1cc(N(CC)CC)ccc1C21c2ccccc2C(=O)N1N=Cc1c[c-]c(-c2ccccn2)cc1.Cc1c(C)c(-c2ccc(-c3ccccc3)cc2)[c-](C)c1C.[Cl-].[Ir+3]	HeLa human cancer cells	cell growth, MTT	–	24 h	28.2 ± 3.8 µM
CC/C(=C(\c1ccc(O)cc1)c1ccc(OCCN(C)CCOCCOCCOCCOCCOCCN(C)CCOc2ccc(/C(=C(/CC)c3ccccc3)c3ccc(O)cc3)cc2)cc1)c1ccccc1	MCF7 (ER-positive)	cell growth	–	96 h	0.08 µM
CC(C)(C)c1cc(=O)n2ncc(-c3ccc(F)cc3)c2[nH]1	SW480 3D tumour organoids	cytotoxicity	0.4% DMSO	72 h, 2% Matrigel	1.73 µM

For quick reference, copied from above:
SMILES	cell line	test	system	setting	IC50
Cc1cc(O)cc2c1O[C@](C)(CCC[C@H](C)CCC[C@H](C)CCCC(C)C)CC2	C3PV	cell growth or viability, MTT	–	24 h	15.8 µM
O=c1ccn([C@@H]2O[C@H](CSSc3ccccn3)[C@@H](O)[C@H](F)[C@H]2O)c(=O)[nH]1	human Fibroblast	cell growth or viability	–	–	9.2 µM
COc1ccc2cc3[n+](cc2c1OCc1cn(Cc2ccccc2)nn1)CCc1cc2c(cc1-3)OCO2	SMMC-7721	cell growth or viability, MTT	–	–	35.4 µM
CN1CCN(Cc2ccc(-c3ccc4[nH]c5ncc(/C=C/c6ccccc6)cc5c4c3)cc2)CC1	Ba/F3 NPM-ALK	cell proliferation, [3H]-thymidine incorporation	–	–	2.5 µM
CC1=C2[O][Ru-]([Cl])[O+]=C2C=CN1CCCCCCCCCCCCN1C=CC2=[O+][Ru-]([Cl])[O]C2=C1C.Cc1ccc(C(C)C)cc1.Cc1ccc(C(C)C)cc1	KYSE-70	cell growth or viability, crystal violet	–	96 h	22.5 µM
CC(C)c1cccc(C(C)C)c1[N+]#[C][Pt-]([Cl])([Cl])=[C](Nc1cccc(CN[C](Nc2c(C(C)C)cccc2C(C)C)=[Au][Cl])c1)Nc1c(C(C)C)cccc1C(C)C	MRC5	cell growth or viability	–	–	> 100 µM
COc1ccc2cc3[n+](cc2c1OCc1cn(Cc2ccccc2Cl)nn1)CCc1cc2c(cc1-3)OCO2	SMMC-7721	cell growth or viability, MTT	–	–	40 µM
CCCCCCCCCCn1c(-c2cccnc2)nc(-c2ccc(C)cc2)c1-c1ccc(C)cc1	BT-474	cell growth or viability, SRB	–	48 h	93 µM
